{"data": "Measured values gathered from unrelated publications", "note": "Each numbered part is a random draw from the data of one study; scales do not carry over between parts.", "UniProt Q03141, sequence (whole entry, looked up)": "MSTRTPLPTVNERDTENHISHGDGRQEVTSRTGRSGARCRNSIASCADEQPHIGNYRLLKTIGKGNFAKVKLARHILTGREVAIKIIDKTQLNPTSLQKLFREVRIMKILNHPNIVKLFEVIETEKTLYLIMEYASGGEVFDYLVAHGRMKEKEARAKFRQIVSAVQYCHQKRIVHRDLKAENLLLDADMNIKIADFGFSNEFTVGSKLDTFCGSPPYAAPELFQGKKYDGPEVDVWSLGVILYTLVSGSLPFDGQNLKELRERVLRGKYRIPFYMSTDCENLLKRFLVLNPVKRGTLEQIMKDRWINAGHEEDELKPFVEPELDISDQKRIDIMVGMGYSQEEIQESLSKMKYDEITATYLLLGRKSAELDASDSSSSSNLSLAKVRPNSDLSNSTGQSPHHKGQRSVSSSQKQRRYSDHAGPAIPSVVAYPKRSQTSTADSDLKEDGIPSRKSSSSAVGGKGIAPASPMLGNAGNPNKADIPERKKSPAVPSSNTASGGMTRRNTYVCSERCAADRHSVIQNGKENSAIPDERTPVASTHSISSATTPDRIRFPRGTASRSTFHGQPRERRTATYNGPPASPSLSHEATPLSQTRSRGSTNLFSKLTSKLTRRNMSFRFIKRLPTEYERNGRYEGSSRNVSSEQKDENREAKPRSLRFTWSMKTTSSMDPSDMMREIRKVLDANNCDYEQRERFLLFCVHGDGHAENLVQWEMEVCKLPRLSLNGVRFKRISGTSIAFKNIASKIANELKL", "UniProt Q6P3R8, sequence (whole entry, looked up)": "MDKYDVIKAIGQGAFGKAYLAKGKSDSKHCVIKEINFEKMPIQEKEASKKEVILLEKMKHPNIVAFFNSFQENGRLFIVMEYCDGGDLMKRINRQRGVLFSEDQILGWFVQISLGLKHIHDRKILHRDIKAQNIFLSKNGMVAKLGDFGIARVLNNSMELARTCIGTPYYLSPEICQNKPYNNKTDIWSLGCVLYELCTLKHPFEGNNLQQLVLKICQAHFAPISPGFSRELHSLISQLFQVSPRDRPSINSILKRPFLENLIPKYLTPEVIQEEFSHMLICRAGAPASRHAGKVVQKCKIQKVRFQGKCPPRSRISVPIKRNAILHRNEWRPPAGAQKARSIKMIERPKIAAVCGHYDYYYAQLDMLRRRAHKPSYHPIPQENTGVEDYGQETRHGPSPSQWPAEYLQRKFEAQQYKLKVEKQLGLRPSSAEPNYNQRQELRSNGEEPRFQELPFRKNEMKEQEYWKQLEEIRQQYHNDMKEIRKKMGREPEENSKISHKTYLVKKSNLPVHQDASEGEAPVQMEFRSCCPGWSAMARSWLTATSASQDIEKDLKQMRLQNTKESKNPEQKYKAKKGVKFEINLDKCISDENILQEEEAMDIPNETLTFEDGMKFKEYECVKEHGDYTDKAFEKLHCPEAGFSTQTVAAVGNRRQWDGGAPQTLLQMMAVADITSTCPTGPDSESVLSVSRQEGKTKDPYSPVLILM", "UniProt P19784, sequence (whole entry, looked up)": "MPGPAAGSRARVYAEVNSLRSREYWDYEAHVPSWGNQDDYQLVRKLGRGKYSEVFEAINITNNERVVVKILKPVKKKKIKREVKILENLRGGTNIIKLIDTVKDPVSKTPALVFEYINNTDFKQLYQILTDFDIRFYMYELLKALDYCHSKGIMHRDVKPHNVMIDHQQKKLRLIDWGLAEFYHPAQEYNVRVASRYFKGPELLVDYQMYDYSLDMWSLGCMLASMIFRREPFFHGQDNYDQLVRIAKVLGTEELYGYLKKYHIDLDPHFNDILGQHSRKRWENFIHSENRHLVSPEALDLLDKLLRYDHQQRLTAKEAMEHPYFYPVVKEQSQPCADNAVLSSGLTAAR", "UniProt Q02750, sequence (whole entry, looked up)": "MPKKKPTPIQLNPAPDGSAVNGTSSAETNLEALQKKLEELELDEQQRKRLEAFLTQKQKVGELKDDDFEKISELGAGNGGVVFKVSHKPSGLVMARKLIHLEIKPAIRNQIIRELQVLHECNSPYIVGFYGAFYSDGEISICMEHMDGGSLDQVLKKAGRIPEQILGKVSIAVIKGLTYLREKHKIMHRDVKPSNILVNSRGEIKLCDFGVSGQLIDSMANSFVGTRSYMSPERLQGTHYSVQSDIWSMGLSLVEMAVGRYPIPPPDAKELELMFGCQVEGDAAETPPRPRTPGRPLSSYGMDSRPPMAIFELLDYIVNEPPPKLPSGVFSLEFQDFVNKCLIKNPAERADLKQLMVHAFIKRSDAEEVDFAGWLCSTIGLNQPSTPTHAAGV", "UniProt P53671, sequence (whole entry, looked up)": "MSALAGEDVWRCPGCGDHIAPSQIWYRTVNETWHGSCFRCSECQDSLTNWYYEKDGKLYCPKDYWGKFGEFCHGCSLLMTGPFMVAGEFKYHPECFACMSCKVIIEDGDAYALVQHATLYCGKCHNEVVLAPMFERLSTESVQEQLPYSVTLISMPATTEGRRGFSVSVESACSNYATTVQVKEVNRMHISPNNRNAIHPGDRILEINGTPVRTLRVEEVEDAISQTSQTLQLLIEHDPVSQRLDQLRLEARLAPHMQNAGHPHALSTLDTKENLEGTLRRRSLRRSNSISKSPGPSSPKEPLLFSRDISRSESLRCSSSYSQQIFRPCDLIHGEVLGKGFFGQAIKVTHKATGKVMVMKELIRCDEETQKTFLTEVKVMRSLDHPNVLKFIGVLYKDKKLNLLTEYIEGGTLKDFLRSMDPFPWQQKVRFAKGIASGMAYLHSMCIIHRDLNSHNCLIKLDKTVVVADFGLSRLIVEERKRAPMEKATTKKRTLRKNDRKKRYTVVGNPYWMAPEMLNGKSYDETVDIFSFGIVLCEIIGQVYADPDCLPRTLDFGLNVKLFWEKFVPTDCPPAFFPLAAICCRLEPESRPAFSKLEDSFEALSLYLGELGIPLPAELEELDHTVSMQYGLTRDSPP", "UniProt Q8N752, sequence (whole entry, looked up)": "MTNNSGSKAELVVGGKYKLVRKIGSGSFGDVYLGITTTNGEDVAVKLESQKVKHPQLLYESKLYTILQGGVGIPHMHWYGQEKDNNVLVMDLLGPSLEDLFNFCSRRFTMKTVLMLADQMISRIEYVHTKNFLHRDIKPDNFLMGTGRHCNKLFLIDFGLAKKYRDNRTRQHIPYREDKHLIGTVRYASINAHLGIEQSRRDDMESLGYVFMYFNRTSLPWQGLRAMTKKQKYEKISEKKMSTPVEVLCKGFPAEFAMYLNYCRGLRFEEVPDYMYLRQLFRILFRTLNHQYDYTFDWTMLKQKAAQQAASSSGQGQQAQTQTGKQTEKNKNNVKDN", "UniProt Q86UX6, sequence (whole entry, looked up)": "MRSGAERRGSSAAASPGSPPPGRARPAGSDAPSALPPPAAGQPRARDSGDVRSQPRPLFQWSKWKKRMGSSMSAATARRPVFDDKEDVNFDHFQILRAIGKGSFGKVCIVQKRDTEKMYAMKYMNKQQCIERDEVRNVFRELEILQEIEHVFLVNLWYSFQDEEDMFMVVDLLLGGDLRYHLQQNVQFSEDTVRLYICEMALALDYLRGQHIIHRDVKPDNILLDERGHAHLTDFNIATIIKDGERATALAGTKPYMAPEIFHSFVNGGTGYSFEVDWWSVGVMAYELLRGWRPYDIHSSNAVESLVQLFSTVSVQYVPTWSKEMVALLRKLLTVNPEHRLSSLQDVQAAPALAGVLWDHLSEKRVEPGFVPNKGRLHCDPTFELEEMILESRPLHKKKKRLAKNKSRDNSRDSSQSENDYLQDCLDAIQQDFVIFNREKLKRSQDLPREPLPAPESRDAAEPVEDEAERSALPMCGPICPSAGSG", "UniProt Q86YV6, sequence (whole entry, looked up)": "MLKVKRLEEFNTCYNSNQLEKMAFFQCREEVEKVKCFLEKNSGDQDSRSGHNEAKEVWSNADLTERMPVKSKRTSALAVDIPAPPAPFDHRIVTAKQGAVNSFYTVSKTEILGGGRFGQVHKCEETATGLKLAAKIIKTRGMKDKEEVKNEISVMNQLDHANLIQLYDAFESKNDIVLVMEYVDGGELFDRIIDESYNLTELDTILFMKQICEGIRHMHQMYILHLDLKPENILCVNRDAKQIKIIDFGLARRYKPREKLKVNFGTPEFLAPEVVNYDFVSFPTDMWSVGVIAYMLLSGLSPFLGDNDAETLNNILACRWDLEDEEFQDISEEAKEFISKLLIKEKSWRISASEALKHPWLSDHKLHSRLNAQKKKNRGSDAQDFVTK"}
{"data": "Sample 1", "Structure (SMILES)": "COc1cc(C(=O)N2CCC(N3CCN(C)CC3)CC2)ccc1Nc1ncc2c(n1)N(C)c1ccccc1C(=O)N2C"}
{"tested on": "human PBMC", "test": "probe labeling, inhibitor, KiNativ profiling", "system": "cell lysate", "setting": "concentration not given, domain 1, DFG motif site, added: ATP acyl-phosphate probe 1 µM", "inhibition": "-3.6%"}
{"tested on": "SRPK1/SRPK2 (mouse)", "test": "probe labelling, inhibitor, KiNativ ActivX ADP probe", "system": "mouse brain lysate", "setting": "0.1 µM", "inhibition": "0.7%"}
{"tested on": "MARK1 (mouse)", "test": "probe labelling, KiNativ ADP probe", "system": "mouse brain lysate", "setting": "0.1 µM, LYS1 labelled site", "inhibition": "2.8%"}
{"tested on": "MAPKAPK2 (human)", "test": "probe labelling, KiNativ ADP probe", "system": "human PBMC lysate", "setting": "concentration not given, LYS1 labelled site", "inhibition": "4.6%"}
{"tested on": "SGK3 (mouse)", "test": "probe labelling, KiNativ, refers to: FYAVkVLQK peptide, LYS1 site", "system": "brain tissue lysate (mouse)", "setting": "0.1 µM, added: ATP acyl-phosphate probe", "inhibition": "-24.8%"}
{"tested on": "MAP2K1 and MAP2K2 human", "test": "KiNativ profiling", "system": "human PBMC", "setting": "1 µM, LYS2 site, added: ADP acyl phosphate probe", "inhibition": "6.4%"}
{"tested on": "BRAF (human)", "test": "probe labelling, KiNativ ADP probe", "system": "human PBMC lysate", "setting": "concentration not given, LYS2 labelled site", "inhibition": "9.6%"}
{"tested on": "MAP/microtubule affinity-regulating kinase 3 (Mark3, Mus musculus, UniProt Q03141)", "test": "KiNativ profiling", "system": "mouse brain lysate", "setting": "0.1 µM, LYS1 site, added: ATP acyl phosphate probe", "inhibition": "6.1%"}
{"tested on": "mouse ILK", "test": "probe labelling, KiNativ ADP probe", "system": "mouse brain lysate", "setting": "0.1 µM, kinase domain ISMADVkFSFQCPGR", "inhibition": "15.7%"}
{"tested on": "AKT1 (mouse)", "test": "probe labelling, KiNativ, refers to: GTFGkVILVK peptide, ATP loop", "system": "brain tissue lysate (mouse)", "setting": "1 µM, added: ATP acyl-phosphate probe", "inhibition": "3%"}
{"tested on": "ACK (mouse)", "test": "probe labelling, KiNativ, refers to: Lys1 site peptide", "system": "brain tissue lysate (mouse)", "setting": "1 µM, added: ADP acyl-phosphate probe", "inhibition": "17.6%"}
{"data": "Sample 2", "target": "Beta-1 adrenergic receptor (ADRB1, Homo sapiens, UniProt P08588)", "action": "agonist", "UniProt P08588, sequence (whole entry, looked up)": "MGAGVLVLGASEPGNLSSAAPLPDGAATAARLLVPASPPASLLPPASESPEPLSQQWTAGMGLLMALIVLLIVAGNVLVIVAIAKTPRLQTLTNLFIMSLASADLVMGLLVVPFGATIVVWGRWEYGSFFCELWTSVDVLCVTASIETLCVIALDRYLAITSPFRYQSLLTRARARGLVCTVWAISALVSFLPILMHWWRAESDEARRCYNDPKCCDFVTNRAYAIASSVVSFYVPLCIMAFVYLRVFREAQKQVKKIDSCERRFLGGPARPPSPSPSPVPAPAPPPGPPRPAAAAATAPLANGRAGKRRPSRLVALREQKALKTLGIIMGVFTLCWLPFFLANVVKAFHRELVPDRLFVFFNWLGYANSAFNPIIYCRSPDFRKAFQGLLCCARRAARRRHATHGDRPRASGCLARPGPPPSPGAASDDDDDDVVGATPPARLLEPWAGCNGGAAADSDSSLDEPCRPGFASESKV"}
{"SMILES": "Clc1cccc(-c2c[nH]c([C@@H]3COCCN3Cc3cnc4ccccc4c3)n2)c1", "EC50 [µM]": "≥ 100"}
{"SMILES": "Cc1ccc2c(CSc3nnnn3-c3ccc(Cl)cc3)cc(=O)oc2c1", "EC50 [µM]": "≥ 100"}
{"SMILES": "N#Cc1cc2c(nc1N1CC(n3c(C4CC4)nc4ccccc43)C1)CCOC2", "EC50 [µM]": "≥ 100"}
{"SMILES": "CC(Cc1ccccc1)NN (stereo not drawn)", "EC50 [µM]": "≥ 100"}
{"SMILES": "Cc1ccc(-c2cc(C(=O)Nc3ccc([S+](=O)([O-])NCc4nccs4)cc3)c3ccccc3n2)cc1C", "EC50 [µM]": "≥ 100"}
{"SMILES": "FC(F)(F)c1cccc(-c2noc(-c3c[nH]nc3-c3ccccc3)n2)c1", "EC50 [µM]": "≥ 100"}
{"SMILES": "COc1ccccc1N1CCN(CC(=O)Nc2ccc(C(N)=O)cc2)CC1", "EC50 [µM]": "≥ 100"}
{"SMILES": "Cc1cc(-c2cc(-c3ccc(F)cc3)nc3c(C)noc23)ccn1", "EC50 [µM]": "≥ 100"}
{"SMILES": "Cc1ccccc1Oc1cccc2c(=O)cc(N3CCOCC3)[nH]c12", "EC50 [µM]": "≥ 100"}
{"SMILES": "COc1cc(-c2cc(-c3ccccc3)nc3c(C)noc23)ccn1", "EC50 [µM]": "≥ 100"}
{"SMILES": "Cc1cc(-c2ccccc2)nc2ccccc12", "EC50 [µM]": "≥ 100"}
{"data": "Sample 3", "Compound": "NS(=O)(=O)c1cc(NC(=O)Cc2ccccc2)ccc1Oc1cccc(Cl)c1", "tested at": "1 µM"}
{"target": "FGFR1 (Homo sapiens, UniProt P11362)", "observed": "cell-free assay", "technique": "competition with immobilised ligand", "remaining binding": "100%"}
{"target": "NEK5 (Homo sapiens, UniProt Q6P3R8)", "observed": "cell-free assay", "technique": "competition with immobilised ligand", "remaining binding": "77%"}
{"target": "EGFR (Homo sapiens, UniProt P00533, del746-750)", "observed": "cell-free assay", "technique": "competition with immobilised ligand", "remaining binding": "58%"}
{"target": "DYRK1B (Homo sapiens, UniProt Q9Y463)", "observed": "cell-free assay", "technique": "competition with immobilised ligand", "remaining binding": "100%"}
{"target": "FLT3 (Homo sapiens, UniProt P36888, D835V/ITD)", "observed": "cell-free assay", "technique": "competition with immobilised ligand", "remaining binding": "53%"}
{"target": "NEK3 (Homo sapiens, UniProt P51956)", "observed": "cell-free assay", "technique": "competition with immobilised ligand", "remaining binding": "100%"}
{"target": "EGFR (Homo sapiens, UniProt P00533, L858R)", "observed": "cell-free assay", "technique": "competition with immobilised ligand", "remaining binding": "85%"}
{"target": "PRKD3 (Homo sapiens, UniProt O94806)", "observed": "cell-free assay", "technique": "competition with immobilised ligand", "remaining binding": "100%"}
{"target": "MET (Homo sapiens, UniProt P08581, Y1235D)", "observed": "cell-free assay", "technique": "competition with immobilised ligand", "remaining binding": "100%"}
{"target": "MAP3K3 (Homo sapiens, UniProt Q99759)", "observed": "cell-free assay", "technique": "competition with immobilised ligand", "remaining binding": "71%"}
{"target": "CSNK1A1L (Homo sapiens, UniProt Q8N752)", "observed": "cell-free assay", "technique": "competition with immobilised ligand", "remaining binding": "74%"}
{"target": "MAP2K1 (Homo sapiens, UniProt Q02750)", "observed": "cell-free assay", "technique": "competition with immobilised ligand", "remaining binding": "97%"}
{"target": "SBK1 (Homo sapiens, UniProt Q52WX2)", "observed": "cell-free assay", "technique": "competition with immobilised ligand", "remaining binding": "100%"}
{"target": "CDK19 (Homo sapiens, UniProt Q9BWU1)", "technique": "competition binding", "remaining binding": "91%"}
{"target": "LIM domain kinase 2 (LIMK2, Homo sapiens, UniProt P53671)", "observed": "cell-free assay", "technique": "competition with immobilised ligand", "remaining binding": "88%"}
{"target": "CSNK2A2 (Homo sapiens, UniProt P19784)", "observed": "cell-free assay", "technique": "competition with immobilised ligand", "remaining binding": "100%"}
{"target": "MET (Homo sapiens, UniProt P08581, M1250T)", "observed": "cell-free assay", "technique": "competition with immobilised ligand", "remaining binding": "99%"}
{"target": "Receptor-type tyrosine-protein kinase FLT3, autoinhibited (FLT3, Homo sapiens, UniProt P36888)", "observed": "cell-free assay", "technique": "competition with immobilised ligand", "remaining binding": "90%"}
{"target": "STK36 (Homo sapiens, UniProt Q9NRP7)", "observed": "cell-free assay", "technique": "competition with immobilised ligand", "remaining binding": "100%"}
{"target": "STK32C (Homo sapiens, UniProt Q86UX6)", "observed": "cell-free assay", "technique": "competition with immobilised ligand", "remaining binding": "100%"}
{"target": "AAK1 (Homo sapiens, UniProt Q2M2I8)", "observed": "binding", "remaining binding": "88%"}
{"target": "DMPK (Homo sapiens, UniProt Q09013)", "observed": "cell-free assay", "technique": "competition with immobilised ligand", "remaining binding": "100%"}
{"target": "MAP3K6 (Homo sapiens, UniProt O95382)", "observed": "cell-free assay", "technique": "competition with immobilised ligand", "remaining binding": "72%"}
{"target": "STK11 (Homo sapiens, UniProt Q15831)", "observed": "cell-free assay", "technique": "competition with immobilised ligand", "remaining binding": "51%"}
{"target": "MYLK4 (Homo sapiens, UniProt Q86YV6)", "observed": "cell-free assay", "technique": "competition with immobilised ligand", "remaining binding": "93%"}
{"data": "Sample 4", "target": "Eukaryotic initiation factor 4A-III (Homo sapiens, UniProt P38919)", "observed": "RNA clamping", "technique": "fluorescence polarization", "tested at": "concentration not given", "added": "FAM-labelled poly r(AG)8 RNA", "UniProt P38919, sequence (whole entry, looked up)": "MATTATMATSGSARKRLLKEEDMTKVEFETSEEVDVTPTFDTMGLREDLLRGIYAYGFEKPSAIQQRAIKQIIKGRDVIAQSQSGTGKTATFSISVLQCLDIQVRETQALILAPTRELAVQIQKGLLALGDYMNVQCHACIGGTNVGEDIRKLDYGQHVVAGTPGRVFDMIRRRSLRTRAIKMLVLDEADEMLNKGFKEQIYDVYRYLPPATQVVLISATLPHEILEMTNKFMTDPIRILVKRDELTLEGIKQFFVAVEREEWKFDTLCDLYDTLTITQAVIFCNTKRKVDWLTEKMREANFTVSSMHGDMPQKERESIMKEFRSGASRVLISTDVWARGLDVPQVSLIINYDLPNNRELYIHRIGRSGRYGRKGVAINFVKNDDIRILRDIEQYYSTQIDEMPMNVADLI"}
{"Structure (SMILES)": "COC(=O)[C@@H]1[C@@H](O)[C@@]2(O)c3c(OC)cc(F)cc3O[C@@]2(c2ccc(Cl)cc2)[C@H]1c1ccccc1", "fluorescence polarization change [mP]": 6.2}
{"Structure (SMILES)": "COc1ccc([C@]23Oc4cc(OC)cc(OC)c4[C@@]4(O[C@@H]5CCCN5C(=O)[C@@H]4[C@H]2c2ccccc2)[C@@H]3O)cc1", "fluorescence polarization change [mP]": -7}
{"Structure (SMILES)": "C#CCOc1nc(-c2ccccc2)nc2c1[C@@H](c1ccccc1)[C@]1(c3ccc(OC)cc3)Oc3cc(OCC(=O)OCC)cc(OC)c3[C@]21OCC(=O)OCC", "fluorescence polarization change [mP]": 11.7}
{"Structure (SMILES)": "COC(=O)[C@@H]1[C@@H](c2ccccc2)[C@]2(c3ccc(OC)cc3)Oc3cc(OC)cc(OC)c3[C@@]23OC(Cc2ccccc2)=N[C@@]13O", "fluorescence polarization change [mP]": 8.8}
{"Structure (SMILES)": "COC(=O)[C@@H]1[C@@H](O)[C@@]2(O)c3c(OC)cc(OS(=O)(=O)c4ccc(C)cc4)cc3O[C@@]2(c2ccc(Br)cc2)[C@H]1c1ccccc1", "fluorescence polarization change [mP]": 3.1}
{"Structure (SMILES)": "COC(=O)[C@@H]1[C@@H](c2ccccc2)[C@]2(c3ccc(OC)cc3)Oc3cc(OC)cc(OC)c3[C@@]23NC(c2ccc(Br)cc2)=N[C@@]13O", "fluorescence polarization change [mP]": 5.5}
{"Structure (SMILES)": "COc1ccc([C@@]23Oc4cc(OC)cc(OC)c4[C@]2(O)[C@H](O)[C@H](C(=O)c2cc4cccc(OC)c4o2)[C@H]3c2ccccc2)cc1", "fluorescence polarization change [mP]": 5.3}
{"Structure (SMILES)": "COc1ccc([C@@]23Oc4cc(OC)cc(OC)c4[C@]2(O)C(=O)[C@H](C(=O)NCCCC2(C)OCCO2)[C@H]3c2ccccc2)cc1", "fluorescence polarization change [mP]": 29.8}
{"Structure (SMILES)": "CCCCN[C@@]12C(=O)[C@H](C(=O)OC)[C@@H](c3ccccc3)[C@]1(c1ccc(OC)cc1)Oc1cc(OC)cc(OC)c12", "fluorescence polarization change [mP]": 14.4}
{"Structure (SMILES)": "COc1ccc([C@@]23Oc4cc(OC)cc(OC)c4[C@]2(O)[C@H](O)[C@H](C(=O)c2ccccc2)[C@H]3c2ccccc2)cc1", "fluorescence polarization change [mP]": 5.3}
{"note": "Some of these lines once more (sample 4):"}
{"Structure (SMILES)": "COC(=O)[C@@H]1[C@@H](O)[C@@]2(O)c3c(OC)cc(OS(=O)(=O)c4ccc(C)cc4)cc3O[C@@]2(c2ccc(Br)cc2)[C@H]1c1ccccc1", "fluorescence polarization change [mP]": 3.1}
{"Structure (SMILES)": "COC(=O)[C@@H]1[C@@H](c2ccccc2)[C@]2(c3ccc(OC)cc3)Oc3cc(OC)cc(OC)c3[C@@]23NC(c2ccc(Br)cc2)=N[C@@]13O", "fluorescence polarization change [mP]": 5.5}
{"Structure (SMILES)": "COc1ccc([C@@]23Oc4cc(OC)cc(OC)c4[C@]2(O)[C@H](O)[C@H](C(=O)c2cc4cccc(OC)c4o2)[C@H]3c2ccccc2)cc1", "fluorescence polarization change [mP]": 5.3}
{"Structure (SMILES)": "COc1ccc([C@@]23Oc4cc(OC)cc(OC)c4[C@]2(O)C(=O)[C@H](C(=O)NCCCC2(C)OCCO2)[C@H]3c2ccccc2)cc1", "fluorescence polarization change [mP]": 29.8}
{"Structure (SMILES)": "CCCCN[C@@]12C(=O)[C@H](C(=O)OC)[C@@H](c3ccccc3)[C@]1(c1ccc(OC)cc1)Oc1cc(OC)cc(OC)c12", "fluorescence polarization change [mP]": 14.4}
{"Structure (SMILES)": "COc1ccc([C@@]23Oc4cc(OC)cc(OC)c4[C@]2(O)[C@H](O)[C@H](C(=O)c2ccccc2)[C@H]3c2ccccc2)cc1", "fluorescence polarization change [mP]": 5.3}
